# Measurements collected from several papers.
# Each line is one published result; not all experiments were run side by side. Values joined by “and” are separate records of one study, mostly repeats; a detail may differ. Numbers after ± are the reported error.
# Sequence of UniProt P02675 (whole entry, looked up): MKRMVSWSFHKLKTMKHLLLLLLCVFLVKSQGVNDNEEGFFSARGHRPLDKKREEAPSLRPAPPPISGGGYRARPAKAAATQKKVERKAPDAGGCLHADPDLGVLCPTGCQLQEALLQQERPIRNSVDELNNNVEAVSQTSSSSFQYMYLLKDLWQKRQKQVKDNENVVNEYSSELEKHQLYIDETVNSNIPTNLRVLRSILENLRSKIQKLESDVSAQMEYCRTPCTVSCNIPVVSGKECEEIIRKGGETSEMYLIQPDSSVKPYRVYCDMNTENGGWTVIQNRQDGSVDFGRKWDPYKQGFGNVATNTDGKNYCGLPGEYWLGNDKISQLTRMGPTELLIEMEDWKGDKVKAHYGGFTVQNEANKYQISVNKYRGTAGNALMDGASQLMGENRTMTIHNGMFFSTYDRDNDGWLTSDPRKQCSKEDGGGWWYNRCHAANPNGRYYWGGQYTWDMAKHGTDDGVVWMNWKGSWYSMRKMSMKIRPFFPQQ
# Sequence of UniProt P02679 (whole entry, looked up): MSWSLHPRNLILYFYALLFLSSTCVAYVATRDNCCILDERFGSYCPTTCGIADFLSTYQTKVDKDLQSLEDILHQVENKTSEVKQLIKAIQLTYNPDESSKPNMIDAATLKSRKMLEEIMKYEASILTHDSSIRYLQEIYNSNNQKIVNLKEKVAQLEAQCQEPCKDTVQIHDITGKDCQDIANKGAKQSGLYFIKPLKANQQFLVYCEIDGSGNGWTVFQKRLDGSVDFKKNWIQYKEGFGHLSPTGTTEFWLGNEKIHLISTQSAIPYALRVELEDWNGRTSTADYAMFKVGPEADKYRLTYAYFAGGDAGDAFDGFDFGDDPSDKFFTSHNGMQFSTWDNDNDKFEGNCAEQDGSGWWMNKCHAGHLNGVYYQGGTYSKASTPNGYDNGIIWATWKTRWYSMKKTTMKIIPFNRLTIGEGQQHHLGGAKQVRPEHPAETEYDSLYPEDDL
# Sequence of UniProt P02671 (whole entry, looked up): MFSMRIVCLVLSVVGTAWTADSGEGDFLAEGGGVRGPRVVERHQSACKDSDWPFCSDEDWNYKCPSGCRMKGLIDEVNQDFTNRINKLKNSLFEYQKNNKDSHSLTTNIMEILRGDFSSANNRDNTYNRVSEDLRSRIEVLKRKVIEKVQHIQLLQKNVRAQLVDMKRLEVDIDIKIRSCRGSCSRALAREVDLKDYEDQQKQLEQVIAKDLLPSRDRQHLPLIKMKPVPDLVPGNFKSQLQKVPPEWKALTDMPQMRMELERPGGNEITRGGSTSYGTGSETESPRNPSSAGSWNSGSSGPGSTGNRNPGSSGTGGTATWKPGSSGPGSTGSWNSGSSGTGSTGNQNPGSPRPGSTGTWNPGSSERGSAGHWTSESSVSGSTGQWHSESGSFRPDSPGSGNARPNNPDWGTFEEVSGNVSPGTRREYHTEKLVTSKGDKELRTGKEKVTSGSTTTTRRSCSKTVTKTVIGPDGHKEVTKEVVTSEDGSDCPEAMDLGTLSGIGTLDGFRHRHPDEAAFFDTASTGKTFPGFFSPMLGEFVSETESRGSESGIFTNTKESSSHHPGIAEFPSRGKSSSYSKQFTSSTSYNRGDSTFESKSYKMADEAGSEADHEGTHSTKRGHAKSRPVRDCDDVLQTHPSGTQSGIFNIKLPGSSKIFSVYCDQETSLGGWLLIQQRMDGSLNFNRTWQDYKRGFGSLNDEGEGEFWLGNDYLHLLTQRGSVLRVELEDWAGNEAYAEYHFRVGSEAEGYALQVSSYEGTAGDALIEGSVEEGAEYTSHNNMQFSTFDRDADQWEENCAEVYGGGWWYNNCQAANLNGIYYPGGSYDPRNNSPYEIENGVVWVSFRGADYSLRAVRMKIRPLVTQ
# Sequence of UniProt Q9BYF1 (whole entry, looked up): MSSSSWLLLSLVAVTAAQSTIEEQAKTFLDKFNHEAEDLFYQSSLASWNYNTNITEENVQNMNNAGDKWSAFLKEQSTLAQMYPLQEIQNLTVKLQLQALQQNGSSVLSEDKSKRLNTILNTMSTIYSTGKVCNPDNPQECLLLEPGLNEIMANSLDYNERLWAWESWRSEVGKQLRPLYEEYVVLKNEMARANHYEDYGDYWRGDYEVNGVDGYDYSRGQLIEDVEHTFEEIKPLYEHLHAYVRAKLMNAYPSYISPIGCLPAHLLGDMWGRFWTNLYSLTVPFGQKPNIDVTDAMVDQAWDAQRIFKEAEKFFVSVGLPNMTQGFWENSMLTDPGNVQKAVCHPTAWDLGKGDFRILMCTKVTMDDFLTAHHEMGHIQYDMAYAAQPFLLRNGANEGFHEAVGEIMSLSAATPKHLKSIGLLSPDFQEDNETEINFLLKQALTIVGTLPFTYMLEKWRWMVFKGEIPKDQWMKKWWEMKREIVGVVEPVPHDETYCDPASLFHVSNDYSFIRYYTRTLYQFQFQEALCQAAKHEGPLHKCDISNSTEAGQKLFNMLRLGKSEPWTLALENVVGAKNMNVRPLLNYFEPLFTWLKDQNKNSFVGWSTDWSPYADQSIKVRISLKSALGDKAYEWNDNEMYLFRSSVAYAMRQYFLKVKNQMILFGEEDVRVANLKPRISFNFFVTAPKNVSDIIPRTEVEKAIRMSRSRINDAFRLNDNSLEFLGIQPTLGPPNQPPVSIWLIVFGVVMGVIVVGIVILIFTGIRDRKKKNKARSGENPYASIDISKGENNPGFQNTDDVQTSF
# Sequence of UniProt Q01959 (whole entry, looked up): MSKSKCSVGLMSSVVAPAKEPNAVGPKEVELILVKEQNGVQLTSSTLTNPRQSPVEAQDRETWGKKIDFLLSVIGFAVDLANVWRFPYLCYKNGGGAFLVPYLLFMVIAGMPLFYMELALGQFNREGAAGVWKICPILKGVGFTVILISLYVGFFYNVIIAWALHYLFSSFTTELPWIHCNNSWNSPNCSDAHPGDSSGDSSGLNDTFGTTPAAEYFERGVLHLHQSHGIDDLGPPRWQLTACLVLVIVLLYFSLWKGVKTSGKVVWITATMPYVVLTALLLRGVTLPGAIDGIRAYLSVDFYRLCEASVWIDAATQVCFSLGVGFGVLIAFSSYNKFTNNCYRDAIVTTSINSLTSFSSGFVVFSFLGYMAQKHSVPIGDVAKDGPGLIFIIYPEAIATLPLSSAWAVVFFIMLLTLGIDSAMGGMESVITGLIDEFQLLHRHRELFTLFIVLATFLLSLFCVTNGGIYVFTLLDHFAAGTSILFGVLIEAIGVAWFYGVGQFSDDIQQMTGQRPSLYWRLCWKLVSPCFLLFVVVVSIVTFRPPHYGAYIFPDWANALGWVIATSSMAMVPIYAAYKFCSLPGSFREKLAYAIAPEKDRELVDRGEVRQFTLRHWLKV
# Sequence of UniProt Q9RFC8 (whole entry, looked up): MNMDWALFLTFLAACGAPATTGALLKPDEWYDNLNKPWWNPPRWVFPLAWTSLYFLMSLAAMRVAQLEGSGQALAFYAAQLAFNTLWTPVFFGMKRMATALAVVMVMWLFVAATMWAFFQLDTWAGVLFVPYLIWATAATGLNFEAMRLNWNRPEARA
# Sequence of UniProt P17988 (whole entry, looked up): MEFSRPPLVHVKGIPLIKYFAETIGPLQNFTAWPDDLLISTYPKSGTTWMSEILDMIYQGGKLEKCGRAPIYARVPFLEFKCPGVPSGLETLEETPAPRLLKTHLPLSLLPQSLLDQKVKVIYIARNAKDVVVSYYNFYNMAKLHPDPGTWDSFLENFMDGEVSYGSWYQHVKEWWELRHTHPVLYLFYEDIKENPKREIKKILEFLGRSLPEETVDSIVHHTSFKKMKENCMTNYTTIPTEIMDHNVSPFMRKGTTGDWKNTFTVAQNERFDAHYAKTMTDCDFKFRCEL
# Sequence of UniProt Q16696 (whole entry, looked up): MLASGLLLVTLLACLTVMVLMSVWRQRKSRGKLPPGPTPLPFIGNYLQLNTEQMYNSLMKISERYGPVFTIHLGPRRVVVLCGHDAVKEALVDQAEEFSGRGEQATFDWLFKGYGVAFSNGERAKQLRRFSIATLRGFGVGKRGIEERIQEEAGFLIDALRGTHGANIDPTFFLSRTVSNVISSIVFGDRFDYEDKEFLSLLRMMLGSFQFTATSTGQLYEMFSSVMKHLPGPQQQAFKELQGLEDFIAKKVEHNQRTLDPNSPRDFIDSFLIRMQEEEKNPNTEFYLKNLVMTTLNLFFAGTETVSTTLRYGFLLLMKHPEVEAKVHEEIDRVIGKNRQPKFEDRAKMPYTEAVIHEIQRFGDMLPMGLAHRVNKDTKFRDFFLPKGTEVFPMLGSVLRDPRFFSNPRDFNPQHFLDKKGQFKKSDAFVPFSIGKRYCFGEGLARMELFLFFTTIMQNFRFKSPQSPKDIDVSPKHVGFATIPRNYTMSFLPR
# Sequence of UniProt P69905 (whole entry, looked up): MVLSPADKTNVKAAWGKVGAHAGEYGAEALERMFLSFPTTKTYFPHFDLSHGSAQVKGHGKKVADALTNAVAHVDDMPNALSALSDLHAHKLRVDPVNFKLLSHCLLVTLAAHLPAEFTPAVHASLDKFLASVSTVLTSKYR
Substance,target,assay,test system,setting,Kd
CC[N+](CC)(CC)CC(=O)Nc1c(C)cccc1C,"sodium channel (rat brain), batrachotoxin-modified","open channel block, blocker, planar lipid bilayer, single channel",,"high affinity open state, +60 mV",580 µM
CC[C@H](C)[C@H](NC(=O)[C@@H](CCCNC(=N)N)NC(=O)[C@H](CCCNC(=N)N)NC(=O)[C@@H]1CCCN1C(=O)[C@@H]1CCCN1C(=O)[C@H](CCCNC(=N)N)NC(=O)[C@@H]1CCCN1C(=O)[C@H](CCCNC(=N)N)NC(=O)[C@@H]1CCCN1C(=O)[C@H](CC(C)C)NC(=O)[C@H](Cc1ccc(O)cc1)NC(=O)[C@@H]1CCCN1C(=O)[C@@H]1CCCN1C(=O)[C@H](CCCCN)NC(=O)[C@H](CC(=O)O)NC(=O)[C@@H](N)C(C)C)C(=O)N[C@@H](Cc1ccc(O)cc1)C(=O)N[C@@H](CC(N)=O)C(=O)N[C@H](CCCNC(=N)N)C(N)=O,70S ribosome Staphylococcus aureus DSM 6247,"binding, fluorescence polarization",,"90 min, pH 7.6, 28 °C, added: fluorescein-labelled peptide",0.102 ± 0.005 µM
CC(=O)N[C@H](CCCNC(=N)N)C(=O)N[C@H](C)C(=O)N[C@H](CC(=O)O)C(=O)N[C@H](C)C(=O)N[C@H](CCCNC(=N)N)C(=O)N[C@H](C)C(=O)N[C@H](CC(=O)O)C(=O)N[C@H](C)C(=O)N[C@H](CCCNC(=N)N)C(=O)N[C@H](C)C(=O)N[C@H](CC(=O)O)C(=O)N[C@H](C)C(=O)N[C@H](CCCNC(=N)N)C(=O)N[C@H](C)C(=O)N[C@H](CC(=O)O)C(=O)N[C@H](C)C(N)=O,chymotrypsin,fluorescence polarization,,"30 min, pH 7.0, added: FITC-labelled peptide",~0.227 µM
C=CC1=C(C)c2cc3[nH]c(cc4nc(cc5[nH]c(cc1n2)c(C)c5CCC(=O)O)C(CCC(=O)O)=C4C)c(C)c3C=C,"tspO (Cereibacter sphaeroides, UniProt Q9RFC8)","binding, fluorescence",,,0.3 µM
Nc1ncnc2c1ncn2[C@@H]1O[C@H](COP(=O)(O)O)[C@@H](OP(=O)(O)O)[C@H]1O,"Sult1a1 (Rattus norvegicus, UniProt P17988)","binding, TNP-AMP displacement",,enzyme pretreated with GSSG,5.1 ± 0.4 µM
COC(=O)[C@H]1C(c2ccc(I)cc2)C[C@@H]2CC[C@H]1N2C (stereo partly drawn),"SLC6A3 (Homo sapiens, UniProt Q01959)","binding, radioligand saturation binding",HEK293 hDAT membranes,90 min,0.00148 ± 0.00023 µM
CN[C@H](CC(C)C)C(=O)N[C@H]1C(=O)N[C@@H](CC(N)=O)C(=O)N[C@H]2C(=O)N[C@H]3C(=O)N[C@H](C(=O)N[C@H](C(=O)O)c4cc(O)cc(O)c4-c4cc3ccc4O)[C@H](O)c3ccc(c(Cl)c3)Oc3cc2cc(c3O[C@@H]2O[C@H](CO)[C@@H](O)[C@H](O)[C@H]2O[C@H]2C[C@](C)(N)[C@H](O)[C@H](C)O2)Oc2ccc(cc2Cl)[C@H]1O,MBP-Lys-D-Ala-D-Ala fusion,"binding, SPR",,25 °C,4.8 ± 0.1 µM
CCCCCCCC[N+](CC)(CC)CC,potassium channel,steady-state block,Doryteuthis pealeii,"internal application, added: membrane potential +100 mV",7.3 µM
CSCC[C@H](NC(=O)[C@H](CO)NC(=O)[C@@H](NC(=O)[C@H](CCC(N)=O)NC(=O)[C@H](CCCCN)NC(=O)[C@H](CCCCN)NC(=O)[C@H](CCCCN)NC(=O)[C@H](CCCCN)NC(C)=O)[C@@H](C)O)C(=O)N[C@H](C(=O)N[C@@H](CC(=O)O)C(=O)N[C@@H](Cc1ccccc1)C(=O)N[C@@H](Cc1ccc(O)cc1)C(=O)N[C@@H](Cc1c[nH]cn1)C(=O)N[C@@H](CO)C(=O)N[C@@H](CCCCN)C(=O)N[C@@H](CCCCN)C(=O)N[C@@H](CCCCN)C(N)=O)[C@@H](C)O,"PCNA (Homo sapiens, UniProt P12004)","binding, ITC",,pH 7.4,0.087 µM
CC1=C(/C=C/C(C)=C/C=C/C(C)=C/C=C/C=C(C)/C=C/C=C(C)/C=C/C2=C(C)C(=O)[C@@H](O)CC2(C)C)C(C)(C)C[C@H](O)C1=O,"Albumin (ALB, Homo sapiens, UniProt P02768)","binding, SPR",,,1.47 µM
CSCC[C@H](NC(=O)[C@H](CCC(N)=O)NC(=O)[C@H](CC(C)C)NC(=O)[C@H](CO)NC(=O)[C@H](CCC(N)=O)NC(=O)[C@H](CC(C)C)NC(=O)[C@H](CCC(=O)O)NC(=O)CNC(=O)[C@@H](NC(=O)[C@H](CO)NC(=O)[C@@H]1CCCN1C(=O)[C@H](CC(=O)O)NC(=O)[C@@H](NC(=O)[C@H](CCC(=O)O)NC(=O)[C@H](CCCCN)NC(=O)[C@H](CO)NC(=O)[C@H](CO)NC(=O)[C@H](CC(C)C)NC(C)=O)C(C)C)[C@@H](C)O)C(=O)N1CCC[C@H]1C(=O)N[C@@H](CCC(=O)O)C(N)=O,"Kelch-like ECH-associated protein 1, Kelch domain (KEAP1, Homo sapiens, UniProt Q14145)",isothermal titration calorimetry,Kelch domain,"pH 7, 25 °C",1.3 ± 0.02 µM
cGMP,"Potassium/sodium hyperpolarization-activated cyclic nucleotide-gated channel 2, C-terminal region (Hcn2, Mus musculus, UniProt O88703, R635A)",isothermal titration calorimetry,,"R635A, single-site model",4.61 ± 0.16 µM
CC1(C)[C@@H](O[C@H]2O[C@H](C(=O)O)[C@@H](O)[C@H](O)[C@H]2O[C@@H]2O[C@H](C(=O)O)[C@@H](O)[C@H](O)[C@H]2O)CC[C@]2(C)[C@H]3C(=O)C=C4[C@@H]5C[C@@](C)(C(=O)O)CC[C@]5(C)CC[C@@]4(C)[C@]3(C)CC[C@@H]12,"ACE2 (Homo sapiens, UniProt Q9BYF1)","binding, SPR",,,4.39 µM
CCCCCCCCCCCCCCCC(=O)NCC(=O)O,"Bifunctional cytochrome P450/NADPH--P450 reductase, heme domain (cyp102A1, Bacillus megaterium, UniProt P14779)","substrate binding, substrate, UV-vis spectral titration",,"pH 7.4, room temperature, wild-type heme domain",0.32 ± 0.01 µM
C#Cc1ccc2ccc3ccccc3c2c1,"Cytochrome P450 2A13 (Homo sapiens, UniProt Q16696)","binding, absorbance",,pH 7.4,0.45 µM
O=C(N[C@H](CO)[C@H](O)c1ccc([N+](=O)[O-])cc1)C(Cl)Cl,"Chloramphenicol acetyltransferase (cat, Escherichia coli, UniProt P62577)","ligand, native ESI-MS",,"second ligand binding, gas phase, added: 200 mM ammonium acetate",90 ± 40 µM
CC[C@H](C)[C@H](NC(=O)[C@H](Cc1c[nH]c2ccccc12)NC(=O)[C@@H]1CSSC[C@H](NC(=O)[C@H](CCC(=O)O)NC(=O)[C@H](Cc2c[nH]c3ccccc23)NC(=O)[C@H](CCC(N)=O)NC(=O)COCCOCCNC(=O)[C@H](CCC(=O)O)NC(=O)[C@H](Cc2c[nH]cn2)NC(=O)[C@@H](N)Cc2c[nH]cn2)C(=O)N2CCC[C@H]2C(=O)N[C@@H](Cc2ccc(O)cc2)C(=O)NCC(=O)N[C@@H](CC(C)C)C(=O)N1)C(=O)N[C@@H](CCC(N)=O)C(=O)O [technetium-99m labelled],"FGA/FGB/FGG, fibrin form (Homo sapiens, UniProt P02671+P02675+P02679)","binding, radioligand competition titration",human plasma fibrin clots,"30 min, pH 7.4, 37 °C",~10 µM and ~10.2 µM
O=Cc1ccc(CO)o1,"Hemoglobin subunit alpha, with beta chain (HBA1, Homo sapiens, UniProt P69905)","steady-state binding, cation-exchange HPLC",,37 °C,370 µM
CCCCCCCCC[N+](CC)(CC)CC,potassium channel,steady-state block,Doryteuthis pealeii,"internal application, added: membrane potential +100 mV",4.1 µM
CC#Cc1cc2ccccc2c2ccccc12,"Cytochrome P450 2A6 (CYP2A6, Homo sapiens, UniProt P11509)","binding, absorbance",,pH 7.4,13 µM
C=CC1=C(C)c2cc3[nH]c(cc4nc(cc5[nH]c(cc1n2)c(C)c5C=C)C(C)=C4CCC(=O)O)c(CCC(=O)O)c3C.[Fe+3],"Kelch protein K13 (Plasmodium falciparum, UniProt Q8IDQ2, A578S)",,,,0.066 ± 0.0179 µM
CCCCCCCC[N+](CC)(CC)CCO,potassium channel,steady-state block,Doryteuthis pealeii,"internal application, added: membrane potential +100 mV",12.7 µM
CCCCC/C=C\C/C=C\C/C=C\C/C=C\CCCC(=O)NCCO,"FABP1 (Homo sapiens, UniProt P07148)","binding, DAUDA displacement",,added: DAUDA 0.5 µM,0.19 ± 0.12 µM
C=CC1=C(C)c2cc3[nH]c(cc4nc(cc5[nH]c(cc1n2)c(C)c5C=C)C(C)=C4CCC(=O)O)c(CCC(=O)O)c3C.[Fe+3],"Heme-binding lipoprotein HupD (Listeria monocytogenes, UniProt Q8Y4K7)","binding, Trp fluorescence quenching",,His-tagged protein,0.036 ± 0.011 µM

# Excerpt of the above:
Substance,target,assay,test system,setting,Kd
CC(=O)N[C@H](CCCNC(=N)N)C(=O)N[C@H](C)C(=O)N[C@H](CC(=O)O)C(=O)N[C@H](C)C(=O)N[C@H](CCCNC(=N)N)C(=O)N[C@H](C)C(=O)N[C@H](CC(=O)O)C(=O)N[C@H](C)C(=O)N[C@H](CCCNC(=N)N)C(=O)N[C@H](C)C(=O)N[C@H](CC(=O)O)C(=O)N[C@H](C)C(=O)N[C@H](CCCNC(=N)N)C(=O)N[C@H](C)C(=O)N[C@H](CC(=O)O)C(=O)N[C@H](C)C(N)=O,chymotrypsin,fluorescence polarization,,"30 min, pH 7.0, added: FITC-labelled peptide",~0.227 µM
